Assay results collected from several papers.
A part holds a random share of what one study measured. Substitutions count along the parent as printed.

Sample 1
Target: Interferon regulatory factor 7, full length, phosphomimetic (IRF7, Homo sapiens, UniProt Q92985, residues 1-503, S101K/S471D/S472D/S475D/S476D/S477D/S483D/S484D/S487D)
Technique: protein-binding microarray
Form: double-stranded DNA, one strand shown
Matrix: in vitro
Concentration: 250 nM
Notes: 60-bp whole probe
With: salmon DNA 0.4 mg/ml
Baseline: random background probes
Reading: higher = stronger binding
Constant ends, left off below: GCCTAGCAC … GTCTTGATTCGCTTGACGCTGCTG
Construct (chain): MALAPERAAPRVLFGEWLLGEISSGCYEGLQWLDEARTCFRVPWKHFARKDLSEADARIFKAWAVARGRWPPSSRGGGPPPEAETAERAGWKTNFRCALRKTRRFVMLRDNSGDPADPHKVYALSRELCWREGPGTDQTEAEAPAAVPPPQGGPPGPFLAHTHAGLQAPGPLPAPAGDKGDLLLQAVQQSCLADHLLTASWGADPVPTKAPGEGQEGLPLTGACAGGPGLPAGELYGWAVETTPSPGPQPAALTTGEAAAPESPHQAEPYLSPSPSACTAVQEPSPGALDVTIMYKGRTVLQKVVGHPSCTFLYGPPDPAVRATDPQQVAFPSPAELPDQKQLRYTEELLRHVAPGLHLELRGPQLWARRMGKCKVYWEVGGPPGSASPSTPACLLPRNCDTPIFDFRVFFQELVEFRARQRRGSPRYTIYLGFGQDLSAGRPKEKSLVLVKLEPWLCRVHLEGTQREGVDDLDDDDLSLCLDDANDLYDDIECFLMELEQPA
Oligonucleotide | log fluorescence
TCATGATTGAATCTCCCACTGTGCTAG | 0.128 z-score
TTAGGTATCGGGCTTCGGTTAGTGCTA | 0.0884 z-score
TCAGATTTTCCCATGAGACTGTGCTAG | 1.02 z-score
TTAGATTTCGGGTAACGATTAGTGCTA | 0.821 z-score
TTAGATAGCAGACTGGATTAGTGCTAG | -0.401 z-score
TCAAGCCTCAGGCCTCACACTGTGCTA | -0.621 z-score
GACGCTATCGACTTTCGGGACGTGCTA | 0.159 z-score
TTAGATATCAGACTGGCTTAGTGCTAG | -0.149 z-score
TTCTGGTTCCCATTCCAGGGGTGCTAG | 1.97 z-score
TCAAATATATGTATATAACTGTGCTAG | 0.143 z-score
GACGGTATCGGGTTTCGGGTCGTGCTA | 6.12 z-score
TTACCTTTTCACTTTACACAGTGCTAG | 2.8 z-score
TGTGTTGCAGAAACGCCATGGTGCTAG | 0.374 z-score
TTAGGTTCCCTTTGCCTTTAGTGCTAG | 3.14 z-score
TTAGGTTACGGTTTCGGTTAGTGCTAG | 9.18 z-score
ATGCTTCTGTATTCATGAAGGTGCTAG | 0.553 z-score
GACGGACTGGGTATTGGGACGTGCTAG | -0.736 z-score
TCATTTCTCCTTTCCAAACTGTGCTAG | 2.8 z-score
GACGGTATCTACTTTCGGGACGTGCTA | 0.408 z-score
GACGGTCTCGGTCTGGGGACGTGCTAG | 0.72 z-score
TTAGGTTTCTGTTCCGGTTAGTGCTAG | 6.5 z-score
AAACGGATGATCTCTCTGGGCGTGCTA | -1.01 z-score
GACGGTATCCGTATCCTGACGTGCTAG | 0.423 z-score
GACGGTTTCGGTATCGGGCCGTGCTAG | 9.64 z-score
GACGATCTCAGACTGGAGTCGTGCTAG | -0.052 z-score

Sample 2
Target: JUN, bZIP domain (human)
Technique: DHFR protein complementation
Matrix: yeast
Notes: single substitutions, most at no-binding floor
Baseline: wild-type JUN-FOS pair
Reading: higher = stronger binding
Starting sequence: JUN, bZIP domain (human); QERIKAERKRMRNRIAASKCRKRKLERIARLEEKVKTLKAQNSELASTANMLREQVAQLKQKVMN; partner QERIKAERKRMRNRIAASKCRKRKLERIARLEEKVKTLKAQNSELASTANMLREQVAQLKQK
Variant | binding fitness [natural log]
E54Q | -0.575
E54K | -0.501
A40R | -0.181
M51R | -0.184
S43E | -0.0145
V56S | -1.17
T48F | -0.703
K39I | -0.233
Q41D | -0.661
R53T | -0.691
K39L | -0.11
M51N | -0.166
R30C | -0.297
A40H | -0.299
T48V | -0.226
A49F | -0.211
S47E | -0.0164
K36G | -0.652
I28T | -0.842
E44L | -0.369
T48R | -0.446
A46V | -0.173
L45Y | -0.934
Q55K | -0.44
E54V | -0.578

Sample 3
Target: RNA binding protein fox-1 homolog 2, RRM domain, GST-SBP tag (RBFOX2, Homo sapiens, UniProt O43251-10, residues 100-194)
Technique: RNA Bind-n-Seq
Form: RNA
Matrix: in vitro
Concentration: 365 nM
Notes: natural RNA segment, single round, ends assumed
Baseline: no-protein control
Reading: higher = stronger binding
Construct (chain): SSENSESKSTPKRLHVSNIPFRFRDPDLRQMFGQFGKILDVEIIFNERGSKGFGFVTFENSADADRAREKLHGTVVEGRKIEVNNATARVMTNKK
Oligonucleotide | RBNS enrichment (R)
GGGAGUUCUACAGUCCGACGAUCAAGAGAGUUGAGUGAAUCUGUUUACAUUUAGGAUAAUGUUUUUUUCUUCAAAAGACGCAAUUGCAAUAGUAUUUUUUAGAUUUUAUCCAAGAAGUUUUUUGGGCAAAAAUUGGAAUUCUCGGGUGCCAA | 0.605
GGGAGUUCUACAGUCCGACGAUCAUCUCCUAACGGGGGCUGGGGGUAAGAGAAAUCUAACUGCGCUCCCCCAACCCCUCGCCCUGCCAUCUUCCCCUCAAGCCUGCUAAGUUAUCCCAGGCCUGUGCGUGGUGUGGAAUUCUCGGGUGCCAA | 0.324
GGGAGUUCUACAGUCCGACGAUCCAUCAGUCACCUUUGGGGUUGCCAUGUACAAUGAGAUUUAUAAUCAUGAUACUCUUCGGUGGUAGUUUCAAAAGACACUACUAAUACGCAGGAAGCGUUCCAGCUAUUUAUGGAAUUCUCGGGUGCCAA | 0.296
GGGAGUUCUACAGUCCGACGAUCGUUAAAUUUGAAAGUGAAUGUGUUCAAAUGAAAGGUUUGAUAAUUGCAUCUGUUACUACUUAGUUUCAUAGGCUUUAAUUCUAGUAUGCAUUAAAUAUUGGGCAAAAUUGUGGAAUUCUCGGGUGCCAA | 1.74
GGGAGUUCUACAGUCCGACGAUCGGGUGAGGGUUUGUAAUACAAAGAAACACUUCCAUCACUUCUGCCCUUAACCCUUGCCUCUAUUACCUAAGCUUAGUAAGUAGUUUUCUUAAUAUUGUCCAAUGUUUGGUUGGAAUUCUCGGGUGCCAA | 0.607
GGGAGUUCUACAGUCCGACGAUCCUUCAAGCGUCAGCUCCAAGUGUCCUUAUGUCAGCAGGAUUUGUUUCCUUCUAGUCCCCCCCCCCCCCAUUAUAGAAAAUAGUAAGGAAAAAUAACAGUUUCAUUGAGAUUGGAAUUCUCGGGUGCCAA | 0.463
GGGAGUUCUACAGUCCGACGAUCUCCUGAUGAUACAGUAAUUGAUGGCAGACAGUUCUGUCUCCUUCCCAGUUGUUAGGCUGCCCCCCUGAGCCUCACCUUGUUCACCUUGGUUUUCCGAUGAUGAGCUUCCCUGGAAUUCUCGGGUGCCAA | 0.615
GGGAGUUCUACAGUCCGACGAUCAGGCACAGGAGGUCAGAGGUGAUGCUGAGGACAGGCCAGAACUCAUCCCAGCACCAGUCUGCUUGAGCCCUGCACUCACUGCUCGGGAAUGGCAAGCUCCCAGAUUCCUUUGGAAUUCUCGGGUGCCAA | 0.684
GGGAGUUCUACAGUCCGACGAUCUCAUAUUUAUAAGUAUGCAUUUUAUUUAAGAGGAAGUAUAGGCUUGACUCUGGUUCACAAUUUCGUACGUAGCUGGUUUGACGUAGAACUUUGUACUUCCCUUGCCGAAGUGGAAUUCUCGGGUGCCAA | 3.84
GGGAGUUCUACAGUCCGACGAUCUGGCCCUGACAUCCCCACAUGCCCGCAGAGAUCCUCUUUGAGUGUCUGUCUUUGUCCAGGUUUCAGACAUUUCUAGGUUGGGGAAGAUGCUAUUGGGAAACCUCUUCUCCUGGAAUUCUCGGGUGCCAA | 0.396
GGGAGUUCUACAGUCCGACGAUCAAAAGUCAUGCCACAGGAAGGGUCUAUUGCAGAAUUUCAAGUUCUGUUUAUAGUAAAAAGGAAGAGCGUUUCCUAAUCCCUCCUUUACCAUAUCCUACACAGAAAAAUACUGGAAUUCUCGGGUGCCAA | 0.291
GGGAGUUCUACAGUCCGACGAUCAGUCAGUCCAGCUCGGGACCGAUGCCUGCUGUGCCUUCCUGCUGAGGGACACCUGCUUAUUUUCCCCCGUGGGCCUCACUCUAUCCCUGAAAACAGUGAAUGUUAUAUGAUGGAAUUCUCGGGUGCCAA | 0.506

Single results of other studies
Molecule | target | assay | system | conditions | scale | endpoint | value
PhoQ, residues 284 288 289 292 302 303 SSLVEF | PhoP, residues 12 14 15 18 19 SYFRT (Escherichia coli, UniProt P23836) | Sort-seq, refers to: YFP reporter | E. coli | PhoQ-PhoP variant library, with: 10 µM Mg2+ | baseline: high Mg2+ state, higher = stronger signaling | fold induction | 3.78
GSALKKLFTSTGL | human cyclin A2 | peptide binding, competitive growth sequencing | peptide, Saccharomyces cerevisiae, cyclin A2-Cln2 fusion strain | mutational scanning library 1 | direction not given | enrichment score | -0.559

A few entries again (sample 2):
Variant | binding fitness [natural log]
L45Y | -0.934
K39L | -0.11
T48F | -0.703
E54V | -0.578
A40R | -0.181
K36G | -0.652
Q41D | -0.661
T48V | -0.226
R53T | -0.691
